Results gathered from unrelated publications.
Parts stem from different laboratories: compare values within a part only.

Series 1
Target: Histone acetyltransferase KAT6A, winged helix 1, GST fusion (KAT6A, Homo sapiens, UniProt Q92794, residues 1-85)
Technique: protein binding microarray
Form: double-stranded DNA, one strand shown
Sample: in vitro
Tested at: not given
Setting: 8-mer, flanks averaged, mean of 2 arrays, mostly near background
Relative to: not given
Reading: higher = stronger binding
Construct (chain): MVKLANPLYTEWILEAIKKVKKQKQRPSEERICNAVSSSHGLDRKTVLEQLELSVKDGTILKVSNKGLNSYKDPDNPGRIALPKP
`GAATCAGC` has an E-score of -0.0779.
`CTCACAAA` has an E-score of 0.000275.
For `ACTATCAG`, the E-score was -0.158.
With `ACTTTGTA` the E-score was -0.2.
For `ATCTCTGC`, the E-score was -0.128.
`AATAGTAC` has an E-score of 0.0472.
`ACTAATAT` has an E-score of -0.0877.

Series 2
Target: Interferon regulatory factor 7, full length, phosphomimetic (IRF7, Homo sapiens, UniProt Q92985, residues 1-503, S471D/S472D/S475D/S476D/S477D/S483D/S484D/S487D)
Sequence of UniProt Q92985 (whole entry, unmodified, looked up): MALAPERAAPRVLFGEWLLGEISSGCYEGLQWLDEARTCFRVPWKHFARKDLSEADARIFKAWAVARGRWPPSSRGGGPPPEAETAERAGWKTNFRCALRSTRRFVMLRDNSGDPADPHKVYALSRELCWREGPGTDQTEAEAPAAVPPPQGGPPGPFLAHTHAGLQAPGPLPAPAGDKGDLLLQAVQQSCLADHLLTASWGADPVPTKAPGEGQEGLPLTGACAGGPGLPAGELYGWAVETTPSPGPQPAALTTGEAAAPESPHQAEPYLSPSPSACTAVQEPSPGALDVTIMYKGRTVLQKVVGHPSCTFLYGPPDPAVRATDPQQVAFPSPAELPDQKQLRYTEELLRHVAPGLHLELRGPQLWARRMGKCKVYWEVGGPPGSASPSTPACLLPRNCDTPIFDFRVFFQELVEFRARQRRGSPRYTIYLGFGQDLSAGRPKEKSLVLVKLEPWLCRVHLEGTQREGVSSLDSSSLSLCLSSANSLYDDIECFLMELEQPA
Technique: protein-binding microarray
Form: double-stranded DNA, one strand shown
Sample: in vitro
Tested at: 2200 nM top
Setting: 60-bp whole probe
Added: salmon DNA 0.4 mg/ml
Relative to: random background probes
Reading: higher = stronger binding
All sequences stand within: GCCTAGCAC … GTCTTGATTCGCTTGACGCTGCTG
For `TTAGGACAGGGACTGGGTTAGTGCTAG`, “fitted relative affinity” read -1.05 z-score.
For `GATTGGTTGAACATGAACTTGTGCTAG`, “fitted relative affinity” read 0.223 z-score.
For `TTCGGTCTCGGACTGGGTTAGTGCTAG`, “fitted relative affinity” read 0.175 z-score.
`GACGGTTCCGACTTTCGGGACGTGCTA` — result for “fitted relative affinity”: 3.03 z-score.
`GTGTACATCTCTCTTAAATAGTGCTAG` — result for “fitted relative affinity”: 1.28 z-score.

Series 3
Target: Phosphate system positive regulatory protein PHO4, full length, GST-tagged (PHO4, Saccharomyces cerevisiae, UniProt P07270, residues 1-312)
Technique: competition protein-binding microarray
Form: double-stranded DNA, one strand shown
Sample: in vitro
Tested at: 2 µM
Setting: whole 60-bp probe, lowest competitor level
Added: Cbf1 competitor, 0.05 µM
Reading: higher = stronger binding
Residues (chain): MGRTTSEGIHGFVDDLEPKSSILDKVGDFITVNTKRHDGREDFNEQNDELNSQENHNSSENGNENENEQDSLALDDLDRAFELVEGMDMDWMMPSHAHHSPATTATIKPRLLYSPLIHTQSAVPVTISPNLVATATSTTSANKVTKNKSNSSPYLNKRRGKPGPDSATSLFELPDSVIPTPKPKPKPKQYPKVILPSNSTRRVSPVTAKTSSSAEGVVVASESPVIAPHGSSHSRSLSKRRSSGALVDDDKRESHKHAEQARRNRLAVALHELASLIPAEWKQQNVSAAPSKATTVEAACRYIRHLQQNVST
`GTCTTGTCTCATTTTCACGTGCCATTCCCCACTTCAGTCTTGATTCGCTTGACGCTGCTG` has a fluorescence intensity of 15900 a.u.
`CATACCCAACCTTGACGTGTGGGTGAAGATATTTGTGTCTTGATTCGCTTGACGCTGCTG` has a fluorescence intensity of 6370 a.u.
The fluorescence intensity of `GAAATATGTTGGGAGCACATGTTCGACCCATTACATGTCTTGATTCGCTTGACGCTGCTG` is reported as 12300 a.u.
For `AAATTACTAAGTTGCCGGGTGGGTGACGCCGTATGAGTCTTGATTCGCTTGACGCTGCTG`, the fluorescence intensity was 4600 a.u.
For `CTTCATTCAAAGGTCCACGTTCAATTAAGTAACAAGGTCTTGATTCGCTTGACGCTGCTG`, the fluorescence intensity was 11800 a.u.

Single results of other studies
`PhoQ, residues 284 288 289 292 302 303 TGYLSA` has a fold induction of 2.18 (PhoP, residues 12 14 15 18 19 MHTVL (Escherichia coli, UniProt P23836); Sort-seq, measured: YFP reporter; E. coli; PhoQ-PhoP variant library, added: 10 µM Mg2+; relative to: high Mg2+ state, higher = stronger signaling).

Excerpt of the above (series 1):
`CTCACAAA` has an E-score of 0.000275.
